Results from different studies.
Parts stem from different laboratories: compare values within a part only. Positions count from the first letter of the parent shown.

Series 1 — technique: RNA Bind-n-Seq; molecule type: RNA; matrix: in vitro; tested at: 365 nM; relative to: no-protein control; reading: higher = stronger binding
Target: RNA binding protein fox-1 homolog 2, RRM domain, GST-SBP tag (RBFOX2, Homo sapiens, UniProt O43251-10, residues 100-194)
Notes: natural RNA segment, single round, ends assumed
Shared flanks, not repeated: GGGAGUUCUACAGUCCGACGAUC … UGGAAUUCUCGGGUGCCAA
Residues (chain): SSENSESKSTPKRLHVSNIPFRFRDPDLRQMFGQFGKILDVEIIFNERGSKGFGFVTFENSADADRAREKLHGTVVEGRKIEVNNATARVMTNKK
| Oligonucleotide | RBNS enrichment (R) |
| --- | --- |
| GGGAGAUGGAUCACUGGGUAACAGCACUUGUCACCAAGCCCAACAGCCCAGGCUCAGUUCUUGGGACCCACAUGGUAGAAGGAGUGUACCGACAUUCCCCCAAGUUGUCC | 0.263 |
| GCCAGUGUGGGGAAGAGAUACAGUAUGUUGGACAGAUAAAAACAUGUGUUAUUUCUUGGUCAAUUUUCUAUUCAUAUUCCUUAUUUUGGCCAGUUCUUUUGUUUGUGCUU | 0.325 |
| GCUGAUCCUCAGGGGCCACUCCCCCAACACCCCUGUACUUGGGUGAGGGAUGUUGGACAGAGCCUGUUUUCAUGUACUGCAGGUGGGGGUGUGCUGACAUGUUUGCUCUU | 0.4 |
| UUUUUUAAAAAUUGAGGAGCUUUAUUUCUAUUUACCCUUCCAUUUUUGUAUAUCAAAUUUCCAUUGUCAUUAAAAACUGUAUCUUGAAACUUUGUGAACUGACUUGCUGU | 0.666 |
| GUGAAGCUGGGAGCAGAUCAUGUAUUUCCCGGAGACGUGGGACCUUGCUGGCAUGUCUCCUUCACAAUCAGGCGUGGGAAUAUCUGGCUUAGGACUGUUUCUCUCUAAGA | 2.39 |
| GGCAUGAGCAGGGCACCUGGGGAGCCAGCUGCAUGGACCUGCUCUCCCUCGCUCGCUCCGGCUUCUCUGCUUUCCCAGGUCUCAGAAAAGAAACCCCUCCACAUCCCCGA | 2.17 |
| AAGGAAUCAGUUACUAUUUAAGUUUGUUUUACAAUGCAAUAAAAGAUACAAGCUGCAGAGAAAAGUAAACUCUGCAAAGAACACUGGUAAUAAUUGUUCUGCAAAGGUUA | 0.435 |
| CUGGGCUUGUCCACGGCAGGAGGCCCCUGGCCUGUUUAAGCCAUACCGAUGCUUAAUUUACAUUUUUGGAGUUGAAUAUUAUUCCGGUGCCUCCACCACCCCCAGCAGAA | 0.401 |
| GCCUAGUUUUUGGCUCUUCACAUAUUCCAUAUUGAUUUUGACGCUCUGUAUAUUGGCAUCAGGUGGCAGCUGAAUAUCUUUUGAAUUACUCGAAGGUAAAGCCAGAUGCC | 0.467 |
| GCAGAGCUCGAAGAGCGGCCACAAGAAACAGAAAAACAAGGACAGGGAGUAUUACGUGUAAACAUGCGAACACUGCUCACACGCGAGUUUUCACAGUUAUUUCUAUCCAC | 0.481 |
| AUUCUAAGAGCAAGUUGAGUUGAACUGAAUCUUCCUUGUCUUAGUAACAAUGUAUAAAUAGUGGCUUUUCUGUACAAAAGGUUGUAAUGCCUCCUGAUGGAUAUAAUUUU | 2.08 |
| CCUUCCUUACUUUUCAGGCGCAUAGCUAUUAGGGGCGACUAAUAGGAAAAAGCUCGCAUUUUCAUCGUGCCUCCUGGAGUAGAGAAAUGGGAACGCCUCUCCCCUCCUUG | 0.573 |

Series 2 — technique: RNA Bind-n-Seq; molecule type: RNA; matrix: in vitro; tested at: not given; relative to: input RNA pool; reading: higher = stronger binding
Target: RING finger protein unkempt homolog, zinc fingers 1-6, GST-SBP tag (UNK, Homo sapiens, UniProt Q9C0B0, residues 30-357)
Notes: RNA with constant flanks, human and mouse sites, ends assumed
Shared flanks, not repeated: GGGAGUUCUACAGUCCGACGAUC … CAACAGAGGAUUGAGCAUCA
Construct (chain): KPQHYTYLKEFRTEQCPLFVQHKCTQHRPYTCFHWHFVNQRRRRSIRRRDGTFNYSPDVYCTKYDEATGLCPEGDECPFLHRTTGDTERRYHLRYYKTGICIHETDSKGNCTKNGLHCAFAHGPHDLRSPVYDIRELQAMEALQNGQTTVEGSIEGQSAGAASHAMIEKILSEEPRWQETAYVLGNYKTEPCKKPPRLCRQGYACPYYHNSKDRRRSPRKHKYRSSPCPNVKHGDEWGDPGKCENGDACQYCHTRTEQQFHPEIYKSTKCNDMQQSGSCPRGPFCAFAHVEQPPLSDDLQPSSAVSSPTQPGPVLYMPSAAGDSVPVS
| Oligonucleotide | bound/input enrichment |
| --- | --- |
| AGCCUGGGCAUUUCUGCAUUUGUGCCAGCUAACACUACAAAAUAGACUUAAUUAGAGAAAUUUAGACCCAGAAUUGCAGCUUCAACAACACAAAACAGGAAAGCUAGAAGAGGUUGCUGU | 37.7 ratio |
| AUGGAGUAGAUUGUACAUUAAAUGUUUUGUUUCUUUACAUUUUUAUGUUCUGAGUUUUGAAAUAGUUUUAUGAAAUUUCUUUAUUUUUCAUUGCAUAGACUGUUAAUAUGUAUAUAAUAC | 2.78 ratio |
| GAGAAGCCAAGUCAGCUUUGUUGUGAUUUGAUUUUUUUUAAAAAACUCUUGUACAAAACUGAUCUAAUUCUUCACUCCUGCUCCAAGGGCUGGGCUGUGGGUGGGAUACUGGGAUUUUGG | 0.501 ratio |
| GGCACUGGCUUCGUGUUCAGCUGCCUCAGCGGCCAGGGCCGUACCACAACUGCGAUGGUGGUGGCUGUCCUGGCCUUCUGGCACAUCCAAGGCUUCCCCGAGGUGGGUGAGGAGGAGCUC | 0.0804 ratio |
| GAAUUUUCUGAAUGCUUUCAUAGACAAAAACGCAUUUAAACUAUGUUUACCUGGUUUUCCAACAGAAAUCAAAUGAUUUUAAUAUUAUGUUUUGAUGGGUUAUUUUCAGAGUUGUUUGGU | 0.248 ratio |
| UUGGAUUCCCCUGAUCAGUUGUCCGGAUUGACAAUGAUUACACACCUCACUGCUACUUCUGACUAUCACAAGGUGGUUGUCAAUUACUUGGCUGGGUUUUUCUACUUACUGAAUUCAGGC | 0.121 ratio |
| GAAGCCUUGAAGAUCUUCCAGAAAAUAAAGGAUGAAAAGAGUCCAGAAUGGUCCAAAUACUUAGGAUUAAUCAAAAAAUUUGUCACUGAUUCCAAUGCAGUGGUUCAAUUGAAAGGACUA | 1.6 ratio |
| GGUAUCGCUGUUGAUCACCUUGGCCGCAACAUCUUCUGGACAGACUCUAACCUGGAUCGAAUAGAAGUGGCGAAGCUGGACGGCACGCAGCGCCGGGUGCUCUUUGAGACUGACUUGGUG | 0.213 ratio |
| UUUUAAGCCCAAGCCCCCGGACACUGCAGCUCUUUUCAGUUUUCGCUAUACCUAAUUCAUUCUUUGCGGCAAAUAAAGCUGAAGAAGCCUGGGAAUAAAGUUUGGAAAGGGUUAAUAAAA | 0.29 ratio |
| UCUUUUGAGGUAGUGGUGCUGGCUGAGCUGUUUGUAGAGAUGCUGCAGAGGGAUUUUGGCUAUAGAAUUUAUAAGACGCUGCUGAGCCUUCCAGAAAAAGUUGUGUCUCCUCCUGAACCU | 1.05 ratio |
| ACUGGAAAGACAGUUGCUACUGCAAGUCAAGAGAUAAUAAUCGCCAGCACAAAAGUUCUGGAAAUCCCACUUCUACCUGAAAAUAAUAUGUCAGCGAGUAUUGACUGUGCAGGUAUUUUA | 0.137 ratio |

Series 3 — technique: DHFR PCA, deep sequencing; matrix: yeast; added: (+)-ABA 2500 µM; relative to: wild-type fitted maximum; reading: higher = stronger binding
Target: ABI1, truncated, D143A, DHFR fusion (Arabidopsis thaliana)
Notes: methotrexate growth selection, single substitutions
Starting sequence: PYL1, truncated, DHFR fusion (Arabidopsis thaliana); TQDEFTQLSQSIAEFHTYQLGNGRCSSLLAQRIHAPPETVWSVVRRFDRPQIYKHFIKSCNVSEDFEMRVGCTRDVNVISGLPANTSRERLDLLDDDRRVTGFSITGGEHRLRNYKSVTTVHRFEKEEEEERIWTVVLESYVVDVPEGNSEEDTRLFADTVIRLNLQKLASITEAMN
| Variant | relative binding score |
| --- | --- |
| V70H | 91.9% |
| I133P | 103% |
| C60F | 60.5% |
| D92V | 90.3% |
| D75H | 97.6% |
| G21T | 98% |
| K116C | 101% |
| T73K | 94% |
| G102T | 74.9% |
| R46A | 92% |
| S87C | 91.9% |
| R123Y | 104% |
| E147Y | 95.3% |
| I33F | 66.8% |
| N22S | 104% |
| G21F | 96.2% |

Series 4 — target: CCND2, cyclin fold, Cln2 fusion (human); technique: yeast growth competition, sequencing; matrix: yeast; notes: weak parent motif; relative to: not given; reading: higher = stronger binding
Starting sequence: E2F8 docking peptide (human); FVPQRKLEVSTED
| Variant | normalised enrichment score |
| --- | --- |
| FVPQAKLEVSTED [R5A] | -0.00403 |
| FVPARKLEVSTED [Q4A] | -0.309 |
| FVPQKKLEVSTED [R5K] | 0.0865 |
| FVPQRALEVSTED [K6A] | 0.0467 |
| AVPQRKLEVSTED [F1A] | 0.16 |
| FVPQKKLEFSTED [R5K V9F] | -0.152 |
| FVPQRKLEVSAED [T11A] | 0.0786 |
| FVPQKKLELSTED [R5K V9L] | -0.125 |
| FVPQRKLEVSTEA [D13A] | -0.315 |
| FVPQRKLEVATED [S10A] | 0.137 |

Series 5 — technique: protein binding microarray; molecule type: double-stranded DNA, one strand shown; matrix: in vitro; tested at: not given; relative to: not given; reading: higher = stronger binding
Target: Histone acetyltransferase KAT6A, winged helix 2, GST fusion (KAT6A, Homo sapiens, UniProt Q92794, residues 85-181)
Notes: 8-mer, flanks averaged, mean of 2 arrays, mostly near background
Target sequence (chain): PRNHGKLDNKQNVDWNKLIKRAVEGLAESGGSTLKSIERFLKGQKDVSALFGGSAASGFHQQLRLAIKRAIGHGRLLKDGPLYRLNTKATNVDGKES
| Oligonucleotide | E-score |
| --- | --- |
| AATTCGTG | -0.00467 |
| AACATTAA | -0.114 |
| GCTATGTA | -0.184 |
| ATATTCTG | -0.214 |
| ATCCCCTA | -0.157 |
| AGAGCCTA | -0.0574 |
| CGCTCGGC | 0.231 |
| AAGACGAT | -0.0525 |
| GAGCCCGA | 0.148 |
| GCTTTTGA | 0.0425 |
| ATTAGTCA | -0.124 |
| CTGCGACA | 0.184 |
| ATAAGGTG | 0.134 |
| CACGTTGG | -0.165 |
| CCTCAATA | -0.175 |
| ATATGCTG | -0.00255 |
| ACAGATCG | -0.111 |
| GGTTTGAC | 0.049 |

Series 6 — technique: universal PBM; molecule type: double-stranded DNA, one strand shown; matrix: in vitro; tested at: not given; reading: higher = stronger binding
Target: Sal-like protein 4, full length isoform B (SALL4, Homo sapiens, UniProt Q9UJQ4-2, residues 1-616)
Notes: 8-mer, flanks averaged, mean of replicates
Construct (chain): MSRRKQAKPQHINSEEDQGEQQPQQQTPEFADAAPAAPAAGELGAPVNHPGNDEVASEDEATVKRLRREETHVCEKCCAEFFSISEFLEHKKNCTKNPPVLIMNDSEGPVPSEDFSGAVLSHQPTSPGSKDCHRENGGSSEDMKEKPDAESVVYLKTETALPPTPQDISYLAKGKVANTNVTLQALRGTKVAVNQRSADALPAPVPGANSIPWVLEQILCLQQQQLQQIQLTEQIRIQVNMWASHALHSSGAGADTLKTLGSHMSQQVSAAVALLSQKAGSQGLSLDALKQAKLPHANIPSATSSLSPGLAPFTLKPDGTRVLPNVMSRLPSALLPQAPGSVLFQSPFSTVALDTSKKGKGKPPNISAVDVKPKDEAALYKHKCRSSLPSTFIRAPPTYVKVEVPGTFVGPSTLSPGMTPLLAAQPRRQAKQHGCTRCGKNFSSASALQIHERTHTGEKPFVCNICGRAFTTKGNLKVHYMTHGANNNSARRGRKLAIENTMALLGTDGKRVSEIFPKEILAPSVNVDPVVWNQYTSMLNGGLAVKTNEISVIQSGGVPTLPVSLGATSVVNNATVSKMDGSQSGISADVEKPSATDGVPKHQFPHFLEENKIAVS
| Oligonucleotide | E-score |
| --- | --- |
| CGCCTGTA | -0.0248 |
| GAAGCTTC | -0.181 |
| CAGAAGCC | -0.159 |
| CGGCCGAA | -0.239 |
| AACGAGCG | 0.00197 |
| TTCGCGAA | 0.168 |
| CAATCCTG | 0.0991 |
| CACTCGGC | -0.109 |
| GACCTGTA | -0.0375 |
| CCGAAAGC | -0.199 |
| CCGCCTCG | -0.253 |
| AGGACGTG | -0.0915 |
| AGTTATTG | 0.313 |
| AAAACCAA | 0.208 |
| AGCCATAG | -0.0705 |
| AACCGCGG | -0.335 |
| AAGCGAGA | 0.00164 |
| ATACACCG | -0.0539 |
| GGGCGCAC | -0.296 |
| CAGATGAC | -0.0138 |
| CATAAGCC | 0.171 |
| TTACATAA | 0.361 |
| GCAGCAGA | -0.171 |
| GATAAATC | 0.12 |
